Measurements collected from several papers.

CCCCN1C(=O)c2cccc3c(NCCCCN4CCOCC4)ccc(c23)C1=O
emission maximum (aqueous medium; pH 6): 554 nm

NCCC(=O)N1Cc2ccccc2-c2c(nnn2-c2cn(C3OC(CO)C(O)C3O)c(=O)[nH]c2=O)-c2ccccc21 (mixture of isomers)
emission maximum (methanol): 361 nm

COCCOCCOc1ccc([P+](Cc2ccc(C3=C4C(C)=CC(C)=[N+]4[B-](F)(F)n4c(C)cc(C)c43)cc2)(c2ccc(OCCOCCOC)cc2)c2ccc(OCCOCCOC)cc2)cc1
emission maximum (PBS; 10 µM, pH 7.4, 298 K, together with: excitation 497 nm): 512 nm

COc1cc(OC)cc(C2=C3C(C)=C(I)C(/C=C/c4c[nH]c5ccccc45)=[N+]3[B-](F)(F)n3c(/C=C/c4c[nH]c5ccccc45)c(I)c(C)c32)c1
emission maximum (DMSO): 771 nm

Nc1ncnc2c1nc(-n1nnc3c1CCC1C(CO)C1CC3)n2C1OC(CO)C(O)C1O (mixture of isomers)
emission maximum (50 mM phosphate buffer; pH 7.0): 403 nm

CCn1cc(/C=C/c2ccc3ccccc3[n+]2CC)c2ccccc21
emission maximum (MeOH; together with: excitation 488 nm): 555 nm

CCCCN1C(=O)c2cccc3c(NCCCCCN4CCOCC4)ccc(c23)C1=O
emission maximum (aqueous medium; pH 6): 553 nm

NCCC(=O)N1Cc2ccccc2-c2c(nnn2-c2nc(N)c3ncn(C4OC(CO)C(O)C4O)c3n2)-c2ccccc21 (mixture of isomers)
emission maximum (50 mM phosphate buffer; pH 7.0): 439 nm

O=c1c(Br)c2oc3c(CN(Cc4ccccn4)Cc4cnccn4)c(O)ccc3nc-2c2ccccc12
emission maximum (PIPES buffer; pH 7.0, metal-free): 625 nm

Cc1nc(C#N)ccc1N
emission maximum (phosphate buffer with BSA; pH 8, 37 °C, 1% DMSO): 380 nm

CCCCN1C(=O)c2cccc3c(NCCCCCCN4CCOCC4)ccc(c23)C1=O
emission maximum (water; pH 6.0): 556 nm

COc1cc(OC)cc(C2=C3C(C)=C(I)C(C)=[N+]3[B-](F)(F)n3c(/C=C/c4cccs4)c(I)c(C)c32)c1
emission maximum (DMSO): 621 nm

CC1(C)C(=CC=C(C=CC2=[N+](CCC[N+](C)(C)C)c3ccc(S(=O)(=O)[O-])cc3C2(C)C)Oc2ccc(CCC(=O)[O-])cc2)N(CCC[N+](C)(C)C)c2ccc(S(=O)(=O)[O-])cc21
emission maximum (100% serum; pH 7.4): 672 nm

COC(=O)c1ccccc1-c1c2ccc(=[N+](C)C)cc-2oc2c1ccc1cccc(O)c12
emission maximum (HCl 12.5 mM; pH 1.9, 10% DMSO): 614 nm

CC1=CC(C)=[N+]2C1=C(CCCC(=O)NCCCC[C@H](NC(=O)N[C@@H](CCC(=O)O)C(=O)O)C(=O)O)c1c(C)cc(C)n1[B-]2(F)F
emission maximum (acetonitrile/water): 506 nm

CC1=CC(C)=[N+]2C1=C(c1ccc(C[P+](c3ccccc3)(C3CCCCC3)C3CCCCC3)cc1)c1c(C)cc(C)n1[B-]2(F)F
emission maximum (PBS; 10 µM, pH 7.4, 298 K, together with: excitation 497 nm): 511 nm

COc1ccc2c(c1)c(CC(=O)NCCCCNC(=O)c1ccc(C3=c4cc5c6c(c4Oc4c3cc3c7c4CCCN7CCC3)CCC[N+]=6CCC5)c(C(=O)[O-])c1)c(C)n2C(=O)c1ccc(Cl)cc1
emission maximum (fluorescence spectroscopy; pH 7): 605 nm

CCn1cc(/C=C/c2sc3ccccc3[n+]2CC)c2ccccc21
emission maximum (PBS; together with: excitation 488 nm): 538 nm

COc1cc(OC)cc(C2=C3C(C)=C(I)C(C)=[N+]3[B-](F)(F)n3c(C)c(I)c(C)c32)c1
emission maximum (DMSO): 551 nm

O=c1[nH]c(=O)n(C2OC(CO)C(O)C2O)cc1-n1nnc2c1CCC1C(CO)C1CC2 (mixture of isomers)
emission maximum (methanol): 312 nm

CC1=CC(C)=[N+]2C1=C(CCCC(=O)NCC1CCC(C(=O)NC(Cc3ccc4ccccc4c3)C(=O)NCCCCC(NC(=O)NC(CCC(=O)O)C(=O)O)C(=O)O)CC1)c1c(C)cc(C)n1[B-]2(F)F (centres unmarked)
emission maximum (acetonitrile/water): 504 nm

COCCOCCOCCOc1ccc(/C=C/C2=[N+]3C(=C(c4cc(OC)cc(OC)c4)c4c(C)c(I)c(/C=C/c5ccc(OCCOCCOCCOC)cc5)n4[B-]3(F)F)C(C)=C2I)cc1
emission maximum (THF): 684 nm

Nc1ncnc2c1nc(-n1nnc3c1CCC1C(CO)C1CC3)n2C1CC(O)C(CO)O1 (mixture of isomers)
emission maximum (50 mM phosphate buffer; pH 7.0): 402 nm

COc1ccc(/C=C/c2ccc(-c3ccc(C)cn3)nc2)cc1
emission maximum (aqueous HEPES buffer; pH 7.4, zinc-free ligand): 460 nm

COCCOCCOCCOc1ccc(/C=C/c2c(I)c(C)c3n2[B-](F)(F)[N+]2=C(C)C(I)=C(C)C2=C3c2cc(OC)cc(OC)c2)cc1
emission maximum (DMSO): 624 nm

COC(=O)c1ccccc1-c1c2ccc(=O)cc-2oc2c1ccc1cccc(O)c12
emission maximum (HCl 12.5 mM; pH 1.9, 10% DMSO): 600 nm

NCCC(=O)N1Cc2ccccc2-c2c(nnn2-c2nc3c(N)ncnc3n2C2OC(CO)C(O)C2O)-c2ccccc21 (mixture of isomers)
emission maximum (methanol): 440 nm

CC1=CC(C)=[N+]2C1=C(CCCC(=O)O)c1c(C)cc(C)n1[B-]2(F)F
emission maximum (acetonitrile/water): 505 nm

CC1(C)C(/C=C/C2=C(Cl)C(=C/C=C3/N(CCCCCC(=O)O)c4ccccc4C3(C)C)/C[N+](C)(C)C2)=[N+](CCCCCC(=O)O)c2ccccc21
emission maximum (10 mM PBS; pH 7.4): 768 nm

COc1ccc2c(c1)c(CC(=O)NCCNS(=O)(=O)c1cccc3c(N(C)C)cccc13)c(C)n2C(=O)c1ccc(Cl)cc1
emission maximum (fluorescence spectroscopy; pH 7): 493 nm

Cc1ccc(-c2ccc(-c3cc4sccc4o3)cn2)nc1
emission maximum (aqueous HEPES buffer; pH 7.4, zinc(II) complex): 495 nm

CCOC(=O)c1[nH]c(C)c(/C=C/C2=[N+]3C(=C(c4cc(OC)cc(OC)c4)c4c(C)c(I)c(/C=C/c5c(C)[nH]c(C(=O)OCC)c5C)n4[B-]3(F)F)C(C)=C2I)c1C
emission maximum (dichloromethane): 710 nm

COC(=O)c1cc(=O)n(C)c2c(-c3ccc(OC)cc3)csc12
emission maximum (dichloromethane; 10 µM): 446 nm

COC(=O)c1ccccc1-c1c2ccc(=[N+](C)C)cc-2oc2c1ccc1cccc(N)c12
emission maximum (phosphate buffer; pH 7.4, 10% DMSO): 770 nm

COc1cc(OC)cc(C2=C3C(C)=C(I)C(/C=C/c4c[nH]c5ccc([N+](=O)[O-])cc45)=[N+]3[B-](F)(F)n3c(/C=C/c4c[nH]c5ccc([N+](=O)[O-])cc45)c(I)c(C)c32)c1
emission maximum (DMSO): 748 nm

COc1ccc2cc(-c3ccc(-c4ccc(C)cn4)nc3)oc2c1
emission maximum (acetonitrile; zinc complex): 538 nm

Nc1nc(-n2nnc3c2CCC2C(CO)C2CC3)nc2c1ncn2C1OC(CO)C(O)C1O (mixture of isomers)
emission maximum (50 mM phosphate buffer; pH 7.0): 405 nm

COc1ccc2c(c1)c(CC(=O)NCCCCNC(=O)c1ccc(C3=c4cc5c6c(c4Oc4c3cc3c7c4C(C)(C)CCN7CCC3(C)C)C(C)(C)CC[N+]=6CCC5(C)C)c(C(=O)[O-])c1)c(C)n2C(=O)c1ccc(Cl)cc1
emission maximum (fluorescence spectroscopy; pH 7): 595 nm

CC1=CC(C)=[N+]2C1=C(c1ccc(C[P+](c3ccccc3)(c3ccccc3)C3CCCCC3)cc1)c1c(C)cc(C)n1[B-]2(F)F
emission maximum (PBS; 10 µM, pH 7.4, 298 K, together with: excitation 497 nm): 511 nm

CCCCN1C(=O)c2cccc3c(NCCCN4CCOCC4)ccc(c23)C1=O
emission maximum (aqueous medium; pH 6): 548 nm

COc1cc(OC)cc(C2=C3C(C)=C(I)C(/C=C/c4cccs4)=[N+]3[B-](F)(F)n3c(/C=C/c4cccs4)c(I)c(C)c32)c1
emission maximum (THF): 680 nm

Repeated from above:
COc1cc(OC)cc(C2=C3C(C)=C(I)C(/C=C/c4cccs4)=[N+]3[B-](F)(F)n3c(/C=C/c4cccs4)c(I)c(C)c32)c1
emission maximum (THF): 680 nm

COCCOCCOCCOc1ccc(/C=C/C2=[N+]3C(=C(c4cc(OC)cc(OC)c4)c4c(C)c(I)c(/C=C/c5ccc(OCCOCCOCCOC)cc5)n4[B-]3(F)F)C(C)=C2I)cc1
emission maximum (THF): 684 nm

Cc1ccc(-c2ccc(-c3cc4sccc4o3)cn2)nc1
emission maximum (aqueous HEPES buffer; pH 7.4, zinc(II) complex): 495 nm
